# Measured values collected from several papers.
# Protocols differ between the studies behind these lines. Several values in a cell are separate wells, animals, samples, runs or records. ± gives the spread as reported.
Structure (SMILES),assay,test system,setting,remaining compound
CC(=O)N[C@@H](CCCNC(=N)N)C(=O)N[C@@H](CCCCN)C(=O)N[C@@H](CCC(=O)N=S(c1ccc(Cl)cc1)c1ccccc1O)C(=O)N[C@H](C(=O)N[C@@H](Cc1ccc(O)cc1)C(N)=O)C(C)C (some centres unmarked),HPLC,95% fetal bovine serum in PBS,"0.5 mM, 1 h, pH 7.4, 37 °C",99.3%
C=CCN1CCC23c4c5ccc(OC(=O)c6ccc(NC(=O)OC(C)(C)C)cc6)c4OC2C(=O)CCC3(O)C1C5 (centres unmarked),,rat plasma,"0 h, together with: digitonin 100 µM",95.5% and 100% and 104%
CCN(CC)CCOc1ccc(-c2nnn(Cc3ccc(OC)cc3)c2N)cc1,,monkey plasma,120 min,125%
C=CCN1CCC23c4c5ccc(OC(=O)c6ccccc6)c4OC2C(=O)CCC3(O)C1C5 (centres unmarked),,rat plasma,"0.5 h, together with: digitonin 100 µM",0%
O=C(O)c1ccc(-c2nc(-c3ccccc3Cl)c3sccn23)cc1,,mouse liver microsomes,"1 µM, 30 min",50.8%
C[C@@H](Oc1ccc2c(c1)[C@H]1CCN[C@@]1(C)CO2)c1ccccc1,HPLC,DPBS,"10 µM, 4 h, 37 °C, together with: CellROX Green 5 µM and tBHP 55 µM",97%
Cc1nnc(-c2ccc(CC(=O)NCCCC[C@H](NC(=O)c3ccc(OCc4ccc(B(O)O)cc4)c(-c4nc5ccccc5c(=O)[nH]4)c3)C(=O)NCC(=O)NCC(=O)NCC(=O)N[C@@H](Cc3ccccc3)C(=O)N[C@@H](Cc3ccccc3)C(=O)O)cc2)nn1,UPLC-MS/MS,human serum,"100 µM, 2.5 h, 37 °C",89.3% and 85.5%
Cc1cc(-c2ccc3ccccc3c2)nnc1NCCN1CCN(C)CC1,,human liver microsomes,60 min,93.8%
C/C(=N\OCCCN1CCCCC1)c1ccc(C(F)(F)F)cc1,,mouse liver microsomes,30 min,58%
C=CCN1CCC23c4c5ccc(OC(=O)c6ccc(N)cc6)c4OC2C(=O)CCC3(O)C1C5 (centres unmarked),,rat plasma,"0.5 h, no inhibitor",6% and 5.6% and 4.7%
C[C@H](NCc1ccc(-c2ccc(C(F)(F)F)cc2)cc1)C(N)=O,,rat plasma,"1 µM, 120 min",95%
CC(C)=CCC/C(C)=C/CCn1cc(CC(P(=O)(O)O)P(=O)(O)O)nn1,,mouse plasma,"4 h, 37 °C, equilibrium dialysis stability",100 ± 7.7%
COc1cc2c(cc1NC(=O)c1cncn1C)C[C@H]1[C@H]3CCCC[C@@]23CCN1C,,"human plasma, 50% in PBS","5 µM, 1 h, 37 °C",104%
O=c1[nH]c2ccccc2c(=O)o1,HPLC-MS,HEPES buffer,"1 h, pH 7.4",41%

# A few entries again:
Structure (SMILES),assay,test system,setting,remaining compound
Cc1nnc(-c2ccc(CC(=O)NCCCC[C@H](NC(=O)c3ccc(OCc4ccc(B(O)O)cc4)c(-c4nc5ccccc5c(=O)[nH]4)c3)C(=O)NCC(=O)NCC(=O)NCC(=O)N[C@@H](Cc3ccccc3)C(=O)N[C@@H](Cc3ccccc3)C(=O)O)cc2)nn1,UPLC-MS/MS,human serum,"100 µM, 2.5 h, 37 °C",89.3% and 85.5%
